Measured values gathered from unrelated publications.
Each numbered part is a random draw from the data of one study; scales do not carry over between parts. ± marks the error that the study gave.
Sequence of UniProt P48736 (whole entry, looked up): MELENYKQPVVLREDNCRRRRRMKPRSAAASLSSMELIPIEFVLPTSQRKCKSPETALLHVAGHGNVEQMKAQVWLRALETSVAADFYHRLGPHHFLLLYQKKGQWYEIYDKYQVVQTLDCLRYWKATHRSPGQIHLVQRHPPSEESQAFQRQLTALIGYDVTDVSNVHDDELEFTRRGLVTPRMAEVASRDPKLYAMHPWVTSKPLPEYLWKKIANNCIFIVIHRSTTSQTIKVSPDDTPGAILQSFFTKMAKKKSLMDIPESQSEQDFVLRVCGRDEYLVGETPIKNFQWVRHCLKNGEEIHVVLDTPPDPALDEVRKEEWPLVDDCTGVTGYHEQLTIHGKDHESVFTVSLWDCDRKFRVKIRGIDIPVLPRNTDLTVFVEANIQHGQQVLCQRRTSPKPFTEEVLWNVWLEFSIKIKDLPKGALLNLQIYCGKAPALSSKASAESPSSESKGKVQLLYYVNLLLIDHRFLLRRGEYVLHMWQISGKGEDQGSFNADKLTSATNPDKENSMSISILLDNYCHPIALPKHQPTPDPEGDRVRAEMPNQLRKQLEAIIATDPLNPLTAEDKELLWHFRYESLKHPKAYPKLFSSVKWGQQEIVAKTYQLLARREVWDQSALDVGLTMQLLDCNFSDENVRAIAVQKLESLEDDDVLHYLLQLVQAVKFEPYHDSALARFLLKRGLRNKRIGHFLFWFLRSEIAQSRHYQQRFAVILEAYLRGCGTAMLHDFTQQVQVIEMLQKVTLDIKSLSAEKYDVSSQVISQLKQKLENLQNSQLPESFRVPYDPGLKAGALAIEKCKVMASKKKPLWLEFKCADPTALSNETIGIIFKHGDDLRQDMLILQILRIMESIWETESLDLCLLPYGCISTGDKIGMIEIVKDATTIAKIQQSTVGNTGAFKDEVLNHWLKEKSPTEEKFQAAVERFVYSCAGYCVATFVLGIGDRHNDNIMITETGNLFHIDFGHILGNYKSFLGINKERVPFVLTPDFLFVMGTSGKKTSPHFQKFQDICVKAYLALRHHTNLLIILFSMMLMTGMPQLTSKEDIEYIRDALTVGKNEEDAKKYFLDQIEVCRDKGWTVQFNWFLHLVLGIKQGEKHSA
Sequence of UniProt P49674 (whole entry, looked up): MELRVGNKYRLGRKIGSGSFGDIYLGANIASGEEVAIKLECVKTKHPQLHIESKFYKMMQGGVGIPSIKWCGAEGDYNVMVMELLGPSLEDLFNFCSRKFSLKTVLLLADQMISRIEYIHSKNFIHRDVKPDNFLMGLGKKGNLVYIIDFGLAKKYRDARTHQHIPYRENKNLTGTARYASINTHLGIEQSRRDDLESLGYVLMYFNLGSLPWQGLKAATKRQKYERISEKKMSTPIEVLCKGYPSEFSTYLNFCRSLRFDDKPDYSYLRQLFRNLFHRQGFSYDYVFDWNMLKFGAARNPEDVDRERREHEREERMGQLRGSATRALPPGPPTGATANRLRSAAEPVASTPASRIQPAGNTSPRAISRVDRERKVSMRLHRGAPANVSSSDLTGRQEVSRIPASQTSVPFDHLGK
Sequence of UniProt P08631 (whole entry, looked up): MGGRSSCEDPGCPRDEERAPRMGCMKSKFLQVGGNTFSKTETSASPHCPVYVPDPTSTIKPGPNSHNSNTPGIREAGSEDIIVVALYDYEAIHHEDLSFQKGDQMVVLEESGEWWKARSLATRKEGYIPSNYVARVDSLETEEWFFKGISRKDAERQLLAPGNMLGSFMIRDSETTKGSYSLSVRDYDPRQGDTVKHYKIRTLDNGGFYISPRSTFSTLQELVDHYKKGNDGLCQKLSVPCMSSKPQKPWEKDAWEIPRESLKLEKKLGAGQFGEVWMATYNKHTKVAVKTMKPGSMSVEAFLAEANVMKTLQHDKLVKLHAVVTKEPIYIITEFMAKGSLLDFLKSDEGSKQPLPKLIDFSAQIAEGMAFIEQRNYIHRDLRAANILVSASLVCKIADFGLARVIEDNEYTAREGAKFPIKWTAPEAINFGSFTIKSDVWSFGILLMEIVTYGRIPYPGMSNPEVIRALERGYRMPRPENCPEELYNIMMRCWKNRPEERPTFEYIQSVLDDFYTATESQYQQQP
Sequence of UniProt Q96SB4 (whole entry, looked up): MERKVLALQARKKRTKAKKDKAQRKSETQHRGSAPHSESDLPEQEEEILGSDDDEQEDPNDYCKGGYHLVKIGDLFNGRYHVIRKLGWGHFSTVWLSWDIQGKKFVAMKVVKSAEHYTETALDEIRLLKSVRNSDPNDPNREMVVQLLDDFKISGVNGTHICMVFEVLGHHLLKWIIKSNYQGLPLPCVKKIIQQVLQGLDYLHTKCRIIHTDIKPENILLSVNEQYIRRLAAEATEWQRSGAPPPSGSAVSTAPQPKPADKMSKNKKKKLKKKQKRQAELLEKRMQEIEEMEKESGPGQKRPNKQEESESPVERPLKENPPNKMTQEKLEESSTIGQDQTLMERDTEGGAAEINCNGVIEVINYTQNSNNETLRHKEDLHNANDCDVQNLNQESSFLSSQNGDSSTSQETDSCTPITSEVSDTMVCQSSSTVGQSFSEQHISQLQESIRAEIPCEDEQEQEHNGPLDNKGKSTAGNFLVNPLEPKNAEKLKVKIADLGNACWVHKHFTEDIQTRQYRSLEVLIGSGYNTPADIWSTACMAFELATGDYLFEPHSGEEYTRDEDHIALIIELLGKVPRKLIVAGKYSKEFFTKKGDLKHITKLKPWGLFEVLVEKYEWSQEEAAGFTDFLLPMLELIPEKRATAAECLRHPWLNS
Sequence of UniProt Q9NRP7 (whole entry, looked up): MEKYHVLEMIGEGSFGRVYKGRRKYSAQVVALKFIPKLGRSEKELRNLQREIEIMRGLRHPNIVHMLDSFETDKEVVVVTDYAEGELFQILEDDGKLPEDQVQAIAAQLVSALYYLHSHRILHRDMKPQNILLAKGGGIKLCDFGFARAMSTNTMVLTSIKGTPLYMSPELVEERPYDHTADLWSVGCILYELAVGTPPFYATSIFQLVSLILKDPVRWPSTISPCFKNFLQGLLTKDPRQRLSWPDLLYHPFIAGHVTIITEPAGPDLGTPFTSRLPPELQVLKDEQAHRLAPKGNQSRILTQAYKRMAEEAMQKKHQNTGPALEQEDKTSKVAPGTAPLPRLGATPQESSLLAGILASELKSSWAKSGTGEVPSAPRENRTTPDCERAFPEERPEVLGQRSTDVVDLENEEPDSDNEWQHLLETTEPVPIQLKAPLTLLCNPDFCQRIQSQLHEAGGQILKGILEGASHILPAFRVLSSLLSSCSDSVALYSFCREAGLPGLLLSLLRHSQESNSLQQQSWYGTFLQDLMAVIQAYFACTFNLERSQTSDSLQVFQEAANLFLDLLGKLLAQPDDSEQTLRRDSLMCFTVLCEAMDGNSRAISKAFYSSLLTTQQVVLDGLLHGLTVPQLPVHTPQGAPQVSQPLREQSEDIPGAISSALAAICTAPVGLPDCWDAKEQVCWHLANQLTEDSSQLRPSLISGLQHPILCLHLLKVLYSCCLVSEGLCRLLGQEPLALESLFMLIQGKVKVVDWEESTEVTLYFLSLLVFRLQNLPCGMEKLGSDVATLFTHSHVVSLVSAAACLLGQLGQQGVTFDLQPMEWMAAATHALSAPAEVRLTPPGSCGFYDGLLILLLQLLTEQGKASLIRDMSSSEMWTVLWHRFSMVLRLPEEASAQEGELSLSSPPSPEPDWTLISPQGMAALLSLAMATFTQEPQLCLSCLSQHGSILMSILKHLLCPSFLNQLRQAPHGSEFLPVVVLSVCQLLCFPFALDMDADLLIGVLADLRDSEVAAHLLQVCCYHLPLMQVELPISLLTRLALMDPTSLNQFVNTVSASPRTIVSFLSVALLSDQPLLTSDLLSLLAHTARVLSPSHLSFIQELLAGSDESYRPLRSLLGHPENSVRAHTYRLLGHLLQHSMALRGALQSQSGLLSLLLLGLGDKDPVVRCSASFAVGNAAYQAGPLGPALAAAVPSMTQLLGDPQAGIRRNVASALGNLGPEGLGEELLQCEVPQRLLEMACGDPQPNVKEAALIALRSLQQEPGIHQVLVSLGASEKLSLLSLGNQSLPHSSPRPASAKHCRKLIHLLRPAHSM
Sequence of UniProt Q9UHD2 (whole entry, looked up): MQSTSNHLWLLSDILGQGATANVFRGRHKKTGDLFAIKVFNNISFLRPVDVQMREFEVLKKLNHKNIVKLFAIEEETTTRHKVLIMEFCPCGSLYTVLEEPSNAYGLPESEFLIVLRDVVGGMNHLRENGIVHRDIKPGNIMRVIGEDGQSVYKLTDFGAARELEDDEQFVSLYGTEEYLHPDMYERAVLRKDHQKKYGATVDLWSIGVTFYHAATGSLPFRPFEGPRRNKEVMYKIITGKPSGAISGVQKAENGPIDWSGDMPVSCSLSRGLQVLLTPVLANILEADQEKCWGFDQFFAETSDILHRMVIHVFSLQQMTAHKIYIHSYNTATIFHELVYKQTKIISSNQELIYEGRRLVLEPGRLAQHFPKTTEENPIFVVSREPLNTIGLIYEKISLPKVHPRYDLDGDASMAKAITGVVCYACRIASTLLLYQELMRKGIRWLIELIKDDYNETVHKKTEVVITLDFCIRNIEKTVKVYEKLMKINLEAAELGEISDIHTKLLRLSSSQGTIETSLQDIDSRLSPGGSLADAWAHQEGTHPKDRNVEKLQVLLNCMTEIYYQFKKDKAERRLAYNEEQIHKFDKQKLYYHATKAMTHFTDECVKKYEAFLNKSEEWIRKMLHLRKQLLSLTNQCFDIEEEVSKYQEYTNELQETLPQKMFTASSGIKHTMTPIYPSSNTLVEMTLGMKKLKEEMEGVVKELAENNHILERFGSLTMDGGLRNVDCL

Set 1
Cell line: mouse MPNST tumor cells
Method: high-content immunofluorescence imaging
Item: nuclear SOX9
Concentration: 10 µM
Time: 12 h
Notes: mean of 2 replicates
Relative to: DMSO control
Direction: higher = more nuclear SOX9
Under “nuclear SOX9 intensity”, Cc1nc2n(c(=O)c1CCN1CCC(c3noc4cc(F)ccc34)CC1)CCCC2O (stereo not drawn) is recorded as 112 % of DMSO.
Under “nuclear SOX9 intensity”, CC(C(=O)O)c1ccc(C(=O)c2cccs2)cc1 (stereo not drawn) is recorded as 99.1 % of DMSO.
NC(=O)N[C@@H](CCC(=O)O)C(=O)O: “nuclear SOX9 intensity” 87.9 % of DMSO.
CC#CCOC(=O)c1c(C)nc2sc3c(c2c1N)CCC(O)C3 (stereo not drawn) — result for “nuclear SOX9 intensity”: 104 % of DMSO.
CCn1c(=O)n(C2CCCN(c3nccc(-c4cc5ccccc5o4)n3)C2)c2ccccc21 (stereo not drawn) — result for “nuclear SOX9 intensity”: 134 % of DMSO.
O=C(O)[C@H](Cc1ccc(OC(=O)N2CCCC2)cc1)NC(=O)[C@@H]1CCCN1S(=O)(=O)c1ccccc1 — result for “nuclear SOX9 intensity”: 89.1 % of DMSO.

Set 2
Compound: CCCCN(CCCC)C(=O)CN1C[C@@H](c2cc(OC)c3c(c2)OCO3)[C@H](C(=O)O)[C@H]1CC(C)(C)CCC
Observed: cell-free assay
Method: competition with immobilised ligand
Concentration: 1 µM
It gave 90.8% for remaining binding (PIK3CG (Homo sapiens, UniProt P48736)).
It gave 100% for remaining binding (MET (Homo sapiens, UniProt P08581, Y1235D)).
For PIK3CA (Homo sapiens, UniProt P42336, E545K): remaining binding read 91%.
TBK1 (Homo sapiens, UniProt Q9UHD2) — remaining binding: 100%.
It gave 82.8% for remaining binding (HCK (Homo sapiens, UniProt P08631)).
For STK36 (Homo sapiens, UniProt Q9NRP7): remaining binding read 75%.
CSNK1E (Homo sapiens, UniProt P49674) — remaining binding: 100%.
The remaining binding was 100% (RIOK1 (Homo sapiens, UniProt Q9BRS2)).
SRPK1 (Homo sapiens, UniProt Q96SB4) — remaining binding: 62.5%.
For ZAP70 (Homo sapiens, UniProt P43403): remaining binding read 98.5%.
FLT3 (Homo sapiens, UniProt P36888, ITD) — remaining binding: 100%.

Set 3
Target: panel of 300 human kinases
Concentration: 0.5 µM
Direction: higher = more selective
The Gini score of O=C1Cc2c([nH]c3ccc(Br)cc23)-c2ccccc2N1 is reported as 0.7.
COc1ccc2c(c1)c(C1=C(c3c[nH]c4ccccc34)C(=O)NC1=O)cn2CCCN(C)C gave a Gini score of 0.59.
The Gini score of Cn1cnc2cc3c(Nc4cccc(Br)c4)ncnc3cc21 is reported as 0.67.
CCCNC(=O)Nc1ccc(Oc2ncnc3cc(OC)c(OC)cc23)cc1Cl has a Gini score of 0.63.
With CCN1/C(=C/C(C)=O)Sc2ccc(OC)cc21 the Gini score was 0.69.
For Cc1nc(Nc2ncc(C(=O)Nc3c(C)cccc3Cl)s2)cc(N2CCN(CCO)CC2)n1, the Gini score was 0.74.

Set 4
Compound: COc1cc(C(=O)N2CCC(N3CCN(C)CC3)CC2)ccc1Nc1ncc2c(n1)N(C)c1ccccc1C(=O)N2C
Observed: kinase activity
The remaining activity was 95% (DYRK3; 1 µM).
The remaining activity was 96 ± 7% (EPH-B2; 1 µM).
For PKCz; 10 µM: remaining activity read 104%.
For JNK2; 10 µM: remaining activity read 98 ± 2%.
DAPK1; 1 µM — remaining activity: 85 ± 1%.
The remaining activity was 84 ± 4% (PAK5; 1 µM).
The remaining activity was 110 ± 3% (NEK2a; 10 µM).

Excerpt of the above (set 1):
Under “nuclear SOX9 intensity”, Cc1nc2n(c(=O)c1CCN1CCC(c3noc4cc(F)ccc34)CC1)CCCC2O (stereo not drawn) is recorded as 112 % of DMSO.
Under “nuclear SOX9 intensity”, CC(C(=O)O)c1ccc(C(=O)c2cccs2)cc1 (stereo not drawn) is recorded as 99.1 % of DMSO.
NC(=O)N[C@@H](CCC(=O)O)C(=O)O: “nuclear SOX9 intensity” 87.9 % of DMSO.
